Measurements pooled from the literature.
A part holds a random share of what one study measured. Values joined by “and” are separate records of one study, mostly repeats; a detail may differ. Positions count from the first letter of the parent shown.

Block 1
Target: tungstate, free oxyanion
Method: microfluidic competitive inhibition
Sample: in vitro, cell-free expressed
Tested at: not given
Setting: derived from inhibition constants, unchanged parent 2230 nM
Direction: lower = stronger binding
Measurement: oxyanion analog dissociation constant
Starting sequence: PafA, mature enzyme, eGFP fusion (Elizabethkingia meningoseptica, UniProt Q9KJX5); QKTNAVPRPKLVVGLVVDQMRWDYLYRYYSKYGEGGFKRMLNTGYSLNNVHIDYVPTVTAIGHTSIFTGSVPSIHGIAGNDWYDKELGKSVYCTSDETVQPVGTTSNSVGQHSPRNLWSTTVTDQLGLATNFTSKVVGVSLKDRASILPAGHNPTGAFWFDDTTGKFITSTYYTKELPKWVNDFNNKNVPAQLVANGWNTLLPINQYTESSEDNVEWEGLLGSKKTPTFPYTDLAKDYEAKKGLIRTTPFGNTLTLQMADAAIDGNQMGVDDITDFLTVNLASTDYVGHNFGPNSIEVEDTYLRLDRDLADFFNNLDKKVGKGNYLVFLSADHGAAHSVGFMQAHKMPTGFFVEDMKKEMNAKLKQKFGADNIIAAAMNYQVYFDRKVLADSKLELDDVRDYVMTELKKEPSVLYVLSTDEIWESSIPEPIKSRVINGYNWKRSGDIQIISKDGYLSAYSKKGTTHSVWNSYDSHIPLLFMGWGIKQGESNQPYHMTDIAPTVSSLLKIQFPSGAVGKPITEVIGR
I263G: 1410 nM
D371V: 2250 nM
E218G: 590 nM
I436G: 903 nM
K318G: 1950 nM
L221V: 2290 nM
N196G: 2310 nM
E424V: 2450 nM

Block 2
Target: UDP-N-acetylglucosamine--peptide N-acetylglucosaminyltransferase 110 kDa subunit (OGT, Homo sapiens, UniProt O15294)
Effect on: phage display binding
Method: phage display panning NGS
Molecule type: peptide
Baseline: OGT-panned over input library
Measurement: log2 fold enrichment
Construct (O15294 1-1046): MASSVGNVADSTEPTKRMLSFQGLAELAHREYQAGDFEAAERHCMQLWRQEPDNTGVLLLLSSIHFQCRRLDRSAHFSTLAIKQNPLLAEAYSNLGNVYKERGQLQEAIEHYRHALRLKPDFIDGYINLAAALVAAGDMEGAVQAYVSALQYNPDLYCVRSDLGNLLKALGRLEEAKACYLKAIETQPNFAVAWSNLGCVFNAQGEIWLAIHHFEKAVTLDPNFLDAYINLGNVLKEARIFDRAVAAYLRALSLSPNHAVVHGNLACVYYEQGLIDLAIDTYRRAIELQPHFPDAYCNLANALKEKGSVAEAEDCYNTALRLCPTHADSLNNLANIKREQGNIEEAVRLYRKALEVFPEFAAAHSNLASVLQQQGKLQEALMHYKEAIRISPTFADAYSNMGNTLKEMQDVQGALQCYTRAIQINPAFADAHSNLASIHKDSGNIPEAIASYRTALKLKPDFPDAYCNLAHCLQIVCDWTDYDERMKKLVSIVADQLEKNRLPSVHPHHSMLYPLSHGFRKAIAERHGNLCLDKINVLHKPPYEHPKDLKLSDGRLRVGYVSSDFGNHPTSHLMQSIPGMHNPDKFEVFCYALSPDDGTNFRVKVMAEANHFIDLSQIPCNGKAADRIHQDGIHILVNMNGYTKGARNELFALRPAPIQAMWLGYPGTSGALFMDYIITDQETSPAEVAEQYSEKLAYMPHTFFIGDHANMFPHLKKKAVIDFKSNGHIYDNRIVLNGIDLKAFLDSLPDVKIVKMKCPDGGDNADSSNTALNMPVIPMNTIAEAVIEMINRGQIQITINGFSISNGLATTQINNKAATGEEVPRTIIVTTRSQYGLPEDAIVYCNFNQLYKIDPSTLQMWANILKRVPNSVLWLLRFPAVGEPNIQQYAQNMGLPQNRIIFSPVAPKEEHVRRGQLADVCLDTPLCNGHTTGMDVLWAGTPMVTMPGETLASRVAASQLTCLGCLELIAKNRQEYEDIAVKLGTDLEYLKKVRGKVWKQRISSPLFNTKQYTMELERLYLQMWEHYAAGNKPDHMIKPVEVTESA
VLIFPPQYQMFISSY: 3.4
NYPVHNHDFFEHHHI: 6.02
VEQSSPFAPQYQIQM: 4.34
ERNFTHHVHRDPHR: 2.48
QYQHRSYMPFYQIAT: 6.11
KQVAVSVPPKYQIYV: 2.51
WQMHHDAYYWDHHLH: 6.23
DYKPKYQITAAEAG: 2.85

Block 3
Target: CCNB3, cyclin fold, Cln2 fusion (human)
Method: yeast growth competition, sequencing
Sample: yeast
Setting: weak parent motif
Baseline: not given
Direction: higher = stronger binding
Measurement: normalised enrichment score
Starting sequence: viral docking peptide; KKVKRRLFETREL; partner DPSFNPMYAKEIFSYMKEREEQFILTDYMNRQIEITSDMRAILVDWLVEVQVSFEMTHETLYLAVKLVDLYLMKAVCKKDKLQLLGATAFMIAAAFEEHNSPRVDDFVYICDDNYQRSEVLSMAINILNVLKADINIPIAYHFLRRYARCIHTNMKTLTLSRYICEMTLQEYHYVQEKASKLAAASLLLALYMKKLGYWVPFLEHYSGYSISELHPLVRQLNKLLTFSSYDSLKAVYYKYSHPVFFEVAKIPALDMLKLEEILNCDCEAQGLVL
F8L: 0.259
T10A: 0.774
V3A: 0.277
K1A: 1.05
R11A: 0.596

Single results of other studies
CN(N=O)C(=O)N[C@@H]1[C@@H](O)[C@H](O)[C@@H](CO)O[C@@H]1O
body weight (mice, STZ diabetic neuropathy; dose not given, 14 days after STZ): 33.8 g and 34 g and 34.7 g and 37.4 g
